Experimental data collected from several papers.
Parts stem from different laboratories: compare values within a part only.

Study 1
Target: RNA binding protein fox-1 homolog 2, RRM domain, GST-SBP tag (RBFOX2, Homo sapiens, UniProt O43251-10, residues 100-194)
Method: RNA Bind-n-Seq
Form: RNA
Sample: in vitro
Concentration: 365 nM
Notes: natural RNA segment, single round, ends assumed
Reference: no-protein control
Direction: higher = stronger binding
All sequences stand within: GGGAGUUCUACAGUCCGACGAUC … UGGAAUUCUCGGGUGCCAA
Residues (chain): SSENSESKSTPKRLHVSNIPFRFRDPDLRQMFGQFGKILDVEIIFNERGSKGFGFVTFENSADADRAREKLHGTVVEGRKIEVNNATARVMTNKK
| Sequence | RBNS enrichment (R) |
| --- | --- |
| CAAAAAUAAAUGCAUGAAGAGACAUAGCCUUUUAGUUUUGCUAAUUGUGAAAUGGAAAUGCUUUACAGGAAGUAAAUGCAAAUUACUUUUAAGUGUGCUUUAAAGAAAAA | 3.04 |
| GAGAUCGUGCCACUGCACUCCAGCCUGGUCAACAGAGCAAGACUCCAUCUCGAAGAAAAAAAAAAAAAAUUCCCCACCCCUACCAAUUGUUUUACUUCCUCUUCCUGCUC | 0.715 |
| CUUCCUCUGGGAUGGGAGUCCCGCAGCAUCGAGACUGGAAACGUACACAUUUCCCCCAGGGACCCUGUCUUACGAUGCUUUUCUACGUCAAUGCAAUUGUGGCCAUCUGG | 0.455 |
| CCCAGCUCCUUAUACUGGGCACCCGGGCCCCUGACAGGAGUGGGUUGGGGGGCAGUUGGUUUGGUCUUCCUUCUAGGAGUAUGAGGGCAGCCUGUCUAGUUUGUAGAUCC | 0.93 |
| AAAGAUGAUAAUCUUACCUUGCAGUUAUUGACUUUAUAUUCAAUUAUUUACAUCAAAUAAUGAAAUAACUGAAAUGUACAAAUGUCAAAUUUUGGAAGUAUAUUCAAUAC | 0.505 |
| GGAUUUGGGACCUAAAAUACUCCUCAGGUUGAUGUAUUCAUGAAGUUUUAAAACAUCUUUAGUUUUCAAAGUAAACUGGAUAUGUGGACCUUAAAGUUAUUGAGUUUAAG | 0.344 |
| AUGACCACCUAAAACAAUACUUUAUAUUGUUAUUUUUAGAAAGACUCAAAACACCUGUAUUUAAACCUUAAUAUGAAAAUCAUGCAAUUAAUAGUUACACAAGAUGUUUU | 0.457 |
| AUAAUGUAAUAAGAUUCUUUUCUCUUAAGGUAUCCUUGAAUUACACCAAAGAACCAGAAACUUAAUUUUGGUUAAAUUAUUUAUUUAUUUCAUGCAUUAAUUUUCUUUUU | 1.39 |

Study 2
Target: Prothrombin, mature alpha-thrombin (F2, Homo sapiens, UniProt P00734)
Method: aptamer microarray, sandwich
Form: DNA with 2'F-ANA
Sample: in vitro
Concentration: 200 nM
Notes: whole 15-mer aptamer, many near background
With: Cy3 exosite-II aptamer, 400 nM
Direction: higher = stronger binding
Sequence: GGTTGGTGTGGTTGG
| Modification | mean fluorescence intensity |
| --- | --- |
| 2'F-ANA at 2 6 9 10 11 12 13 14 | 90.4 a.u. |
| 2'F-ANA at 2 4 5 6 7 9 11 12 14 15 | 50 a.u. |
| 2'F-ANA at 1 2 3 6 7 9 11 12 13 15 | 205 a.u. |
| 2'F-ANA at 1 2 3 5 6 12 13 15 | 81.8 a.u. |
| 2'F-ANA at 2 4 5 9 10 12 14 | 51.7 a.u. |
| 2'F-ANA at 1 3 6 7 9 10 11 14 | 59.9 a.u. |
| 2'F-ANA at 1 6 9 13 14 | 47.5 a.u. |
| 2'F-ANA at 5 6 9 11 12 13 | 89.6 a.u. |
| 2'F-ANA at 3 5 7 8 11 12 14 15 | 69 a.u. |
| 2'F-ANA at 1 2 5 6 7 8 9 10 11 12 13 15 | 65.2 a.u. |
| 2'F-ANA at 1 3 6 7 8 9 11 12 13 14 15 | 109 a.u. |
| 2'F-ANA at 1 5 7 11 12 15 | 80.9 a.u. |
| 2'F-ANA at 1 3 8 9 10 11 13 | 81.4 a.u. |
| 2'F-ANA at 2 6 7 10 11 12 14 15 | 124 a.u. |
| 2'F-ANA at 2 5 7 9 12 13 14 | 88.4 a.u. |
| 2'F-ANA at 2 5 7 11 14 15 | 45.1 a.u. |
| 2'F-ANA at 1 2 3 4 8 9 10 11 | 57.5 a.u. |
| 2'F-ANA at 1 2 5 6 7 8 9 11 | 70.7 a.u. |
| 2'F-ANA at 4 5 7 8 11 13 14 | 43.3 a.u. |
| 2'F-ANA at 1 3 7 12 15 | 573 a.u. |
| 2'F-ANA at 1 7 8 10 11 12 13 15 | 84 a.u. |
| 2'F-ANA at 2 3 4 6 14 15 | 270 a.u. |
| 2'F-ANA at 1 2 3 4 5 6 8 10 14 15 | 291 a.u. |
| 2'F-ANA at 2 5 8 9 10 | 45.7 a.u. |
| 2'F-ANA at 2 3 5 7 11 15 | 83 a.u. |

Study 3
Target: Interferon regulatory factor 7, full length, phosphomimetic (IRF7, Homo sapiens, UniProt Q92985, residues 1-503, S101K/S471D/S472D/S475D/S476D/S477D/S483D/S484D/S487D)
Method: protein-binding microarray
Form: double-stranded DNA, one strand shown
Sample: in vitro
Concentration: 250 nM
Notes: 60-bp whole probe
With: salmon DNA 0.4 mg/ml
Reference: random background probes
Direction: higher = stronger binding
All sequences stand within: GCCTAGCAC … GTCTTGATTCGCTTGACGCTGCTG
Construct (chain): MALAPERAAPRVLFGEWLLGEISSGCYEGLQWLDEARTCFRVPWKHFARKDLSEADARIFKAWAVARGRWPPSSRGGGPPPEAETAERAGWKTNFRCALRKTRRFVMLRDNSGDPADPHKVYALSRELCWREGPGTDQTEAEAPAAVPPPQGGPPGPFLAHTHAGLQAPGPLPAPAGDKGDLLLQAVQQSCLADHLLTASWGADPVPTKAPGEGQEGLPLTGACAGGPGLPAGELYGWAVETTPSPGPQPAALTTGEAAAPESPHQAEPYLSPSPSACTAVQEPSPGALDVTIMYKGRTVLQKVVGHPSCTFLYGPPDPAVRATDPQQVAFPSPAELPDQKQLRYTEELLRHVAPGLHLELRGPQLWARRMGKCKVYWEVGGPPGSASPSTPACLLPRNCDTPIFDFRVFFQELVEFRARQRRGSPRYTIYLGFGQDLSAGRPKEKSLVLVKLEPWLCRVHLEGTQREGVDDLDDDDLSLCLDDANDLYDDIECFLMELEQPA
| Sequence | log fluorescence [z-score] |
| --- | --- |
| TGTCCTTTCTCCATGGGTATGTGCTAG | 1.83 |
| GACGGTACCGGTTTCGGGACGTGCTAG | 4.23 |
| GCCCCTCTCCTCTCAGGAGCTGTGCTA | 0.319 |
| TTAGAGTTCAGTATCGATTAGTGCTAG | 0.36 |
| TTAGGACTGGGGACTGGGTCAGTGCTA | -0.56 |
| TCATTTTTCTCAACCGTACTGTGCTAG | 1.29 |
| TTAGGTCTCGGGTTCGGTTAGTGCTAG | 4.42 |
| TTAGAACTGAGACTGGAATAGTGCTAG | -0.269 |
| GACGATCTCAGTATCGAGAAGTGCTAG | 0.0454 |
| TTAGGTATCCTTCTCCATTAGTGCTAG | 0.586 |
| TTAGGTTTCGCCACTGGGTTAGTGCTA | 1.18 |
| TCCATGACCTACCCTGCGTTGTGCTAG | -0.236 |
| TTAGAACTGAGTCCCGATTAGTGCTAG | 0.3 |
| CTTACTTCCCAATTGTCTTTGTGCTAG | 1.68 |
| GACGAACGGGGGTATCGAGACGTGCTA | 0.605 |
| GACGAACTGAGTATCGAGCCGTGCTAG | -0.18 |
| GACGGTATCGATTTTCGGGACGTGCTA | 2.78 |
| TCATATTTACCTCTCACACTGTGCTAG | 0.659 |
| TTAGGACTGGAACTGGGTTAGTGCTAG | -0.17 |

Study 4
Target: Hepatocyte nuclear factor 3-alpha (Foxa1, Mus musculus, UniProt P35582, residues 1-468, full length assumed)
Method: EMSA with sequencing
Form: double-stranded DNA, one strand shown
Sample: in vitro
Concentration: 10 and 20 nM
Notes: whole designed probe, mean of two concentrations, ends assumed
Reference: negative control set to 0
Direction: higher = stronger binding
All sequences stand within: GTGAGCGGTGCCCATTGATGGGGAAC … TTTCACTGGGATCGTGGGGAC
Construct (chain): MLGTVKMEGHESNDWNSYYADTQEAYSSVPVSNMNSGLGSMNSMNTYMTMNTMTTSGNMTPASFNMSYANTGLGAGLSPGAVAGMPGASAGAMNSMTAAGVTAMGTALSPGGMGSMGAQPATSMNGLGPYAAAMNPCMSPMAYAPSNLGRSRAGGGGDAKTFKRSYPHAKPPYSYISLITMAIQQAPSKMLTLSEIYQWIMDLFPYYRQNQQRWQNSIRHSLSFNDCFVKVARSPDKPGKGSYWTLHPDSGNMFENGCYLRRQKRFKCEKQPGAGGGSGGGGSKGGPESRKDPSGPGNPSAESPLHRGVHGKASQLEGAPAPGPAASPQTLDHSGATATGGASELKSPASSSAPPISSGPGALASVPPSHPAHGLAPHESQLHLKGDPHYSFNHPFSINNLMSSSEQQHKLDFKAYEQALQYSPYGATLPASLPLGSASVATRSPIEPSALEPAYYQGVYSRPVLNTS
| Sequence | normalised bound fraction [ratio] |
| --- | --- |
| CACTAGCCAAGCAAATGCTACCTTTCCTAAATTACGCCGTGGTATTGTGTACGACAGCAGCAGGGTTGCTATTTTAAAATGGGATTGCGTAAAATAAACATGTGCCCAGATGCTAAACAGGAAGTAGTTGATGATTAATTGATGCTCTGGTACGGCCTCGTGCTTTCCAGTGCTTCCATTTGTGTGACGATCC | 0.24 |
| ATCTTCCCCCTCTTCCTTGCCCCACCAGCTCACCTTCCCGGGTTATTTGCAGATAGGAAAATAAATAAAGCCGGCATTCGTTAACCCTCTTCACGCGCATACTGCTGTTTACTTTGGATGAATCATGGTCCTTTGGCGACGCCAGGCTCCGGGAGAGCAAAGCACCGTGTCAGGGCCATGATCCGGGGTGGCC | 0.433 |
| ATCTTCCCCCTCTTCCTTGCCCCACCAGCTCACCTTCCCGGGTATCTGCAAATAAGGAAATTAATATAAGCCGGCATTCGTTAACCCTCTTCTGGCGCAAACTGCTGTTTGCTCTGGATGAATCATGGTCCTTTGGCGACGCCAGGCTCCGGGAGAGCAAAGCACCGTGTCAGGGCCATGATCCGGGGTGGCC | 0.166 |
| GTGCTCAGCAGCCTTCAACATTAGGATGTGACGCACTTGGAAGCTTGCTCCTTCCTGGTTATCAGCCAAGACAGTGTTGACAGTTGATCGTTCAGTAAACATTATCTCTGCACATAGCGGTAAATGACACCGCAATAAATAAATGTTAGGGAGAAAATGCAGGCAAAACTTCACAATAAAAGCGAGGCATTTC | 0.325 |
| ACTGCTCACCACAGTTTTAAAGCTTTGCCTCTACCTGAAAACCAAACTGGATATGCAGTTAAGTGGAGAATTTAATCTTCCTTTAAAGACAATGCAAACAATTGGTGCCCCTTTAAAACTCGCTTTCTTGTTGAAAGTGAATATTTCTTTTGGATCATTCAAAAACTTCAAGTTTCTTCTGTGATTGTGTACA | 0.364 |

Excerpt of the above (study 2):
| Modification | mean fluorescence intensity |
| --- | --- |
| 2'F-ANA at 1 5 7 11 12 15 | 80.9 a.u. |
| 2'F-ANA at 1 3 8 9 10 11 13 | 81.4 a.u. |
| 2'F-ANA at 2 6 7 10 11 12 14 15 | 124 a.u. |
| 2'F-ANA at 2 5 7 9 12 13 14 | 88.4 a.u. |
| 2'F-ANA at 2 5 7 11 14 15 | 45.1 a.u. |
| 2'F-ANA at 1 2 3 4 8 9 10 11 | 57.5 a.u. |
| 2'F-ANA at 1 2 5 6 7 8 9 11 | 70.7 a.u. |
| 2'F-ANA at 4 5 7 8 11 13 14 | 43.3 a.u. |
| 2'F-ANA at 1 3 7 12 15 | 573 a.u. |
